{"data": "Experimental data collected from several papers", "note": "Every numbered part comes from another study and shows a few of its results, in no order."}
{"data": "Series 1", "target": "RING finger protein unkempt homolog, zinc fingers 1-6, GST-SBP tag (UNK, Homo sapiens, UniProt Q9C0B0, residues 30-357)", "technique": "RNA Bind-n-Seq", "molecule type": "RNA", "medium": "in vitro", "concentration": "not given", "setting": "RNA with constant flanks, human and mouse sites, ends assumed", "reference": "input RNA pool", "reading": "higher = stronger binding", "Target sequence (chain)": "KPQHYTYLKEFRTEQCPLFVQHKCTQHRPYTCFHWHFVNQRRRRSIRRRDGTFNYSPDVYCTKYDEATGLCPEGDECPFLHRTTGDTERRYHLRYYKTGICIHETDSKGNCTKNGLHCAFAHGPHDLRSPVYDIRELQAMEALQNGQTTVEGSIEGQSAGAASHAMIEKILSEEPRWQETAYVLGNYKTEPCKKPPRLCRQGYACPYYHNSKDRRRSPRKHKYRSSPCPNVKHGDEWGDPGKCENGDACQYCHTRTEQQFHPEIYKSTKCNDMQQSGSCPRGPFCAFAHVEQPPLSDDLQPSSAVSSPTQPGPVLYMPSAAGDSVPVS"}
{"Sequence": "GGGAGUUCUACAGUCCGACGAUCUCAACAUCAGUACCCCGAUCAGUACCCCCUGCACCGCCCCCACCUCCACCGCCCACCUCGCUUUCCCAGCCACCCCCGCUGCUGAGGCCACCUCUGCCCACAGCUCCCACAUUGCUCCGCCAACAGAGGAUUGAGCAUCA", "bound/input enrichment [ratio]": 1.32}
{"Sequence": "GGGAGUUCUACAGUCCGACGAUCGUUCUUACCACUUCUCUUCCUCCUCACCCCAGAUACUUCCUCUUCCCCACAACCAAUGUACAUAGUAAUUGUAAUGUUUUAGACUUGACAGAAACUUUCCUGUAUUCUGUAUAUAAAAACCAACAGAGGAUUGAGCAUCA", "bound/input enrichment [ratio]": 3.34}
{"Sequence": "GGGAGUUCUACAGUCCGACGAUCAAGUCUGUACCGCACGGGAAAUGUUCACGCGCCUGGCCGUGUGCAUGGCCUCCCGGGCUGUGGGCAGCCGCAUCUGUGAGGUGACUCGUGAAAGUAGGUGAUUCCUUUGCAGAACUUCAGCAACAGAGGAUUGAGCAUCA", "bound/input enrichment [ratio]": 0.0763}
{"Sequence": "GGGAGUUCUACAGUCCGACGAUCUAACUCUUAUCUUGGGUACUUGAGCAGACGGUAUAUUCCAGAGGUGGGAGGUGGGAGGGGAAGGGAGAAAUCCAAAACAAAGUGUUCUUGCUCUGACAGAAUAUUAAUCUUGUACGCUUGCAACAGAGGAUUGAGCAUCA", "bound/input enrichment [ratio]": 0.116}
{"Sequence": "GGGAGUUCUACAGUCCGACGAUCUGAACUACAAAGAGUAGAAGAGCUUUAUGAUUCAUUAUUACAAGCUAUUGCCUUCUAUGAAUUAGCAGUGUUUGACUCUCAGCCUUAGAAUUCUGAGGUUAACGUGCUAAAGUAUAAUUACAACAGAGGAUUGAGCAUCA", "bound/input enrichment [ratio]": 0.207}
{"Sequence": "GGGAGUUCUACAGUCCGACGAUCCUGUUUUGACAGCCACACAAUCUUGGCAUGUAUUAAGGAAAAAAAAAAUCCCUGUUGAAGUAGUUUUUCCACCUAUCAGCACUGAGUAAAUGCCAUAACUCCGCGGAAAUGGUCUAAAUACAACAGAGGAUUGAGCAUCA", "bound/input enrichment [ratio]": 0.258}
{"Sequence": "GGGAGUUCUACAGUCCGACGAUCGGAAAGUAUGUGUAUGUAGUAACAGAACUUAUGAAAGGAGGUGAAUUGCUGGAUAAAAUUCUUAGACAAAAAUUUUUCUCUGAACGAGAGGCCAGUGCUGUCCUGUUCACUAUAACUAAACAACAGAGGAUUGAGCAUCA", "bound/input enrichment [ratio]": 0.636}
{"Sequence": "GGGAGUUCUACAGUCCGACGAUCGGGGAAAAUUUUGCCUAUGUUCAAAUUAAGACAAUUUGGUCCACUAUGCUUCGUUUAUAUGAAUUUGAUCUCAUUGAUGGAUACUUUCCCACUGUGAAUUAUACAACUAUGAUUCACACCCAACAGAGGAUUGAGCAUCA", "bound/input enrichment [ratio]": 0.108}
{"Sequence": "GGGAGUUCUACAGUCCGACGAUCAAGUUUGGAUUUGAAAUUAGUUUUCCUGAAUUUUGUUUAAAGGGAGUCACACUUAAGAAUUUUAGUACUUCUAAUUUAAAUACUGACUUCCUUGCCAAAAAGAUCAUACCAUCAAAGGAUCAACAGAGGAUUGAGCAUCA", "bound/input enrichment [ratio]": 0.549}
{"Sequence": "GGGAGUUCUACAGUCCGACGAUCACCAAAGGCCUGGAUGCUUCCAGCAAGAGAAACACGGACAAAGCUGUGUCUGUUGAGGCUGCGGAGAGAGACUGGGAAGAGAAGCGGGCAGCCCUGACCCAGUACAGCGCCAAGGACAUCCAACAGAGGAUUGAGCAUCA", "bound/input enrichment [ratio]": 0.171}
{"data": "Series 2", "target": "Histone acetyltransferase KAT6A, both winged helices, GST fusion (KAT6A, Homo sapiens, UniProt Q92794, residues 1-181)", "technique": "protein binding microarray", "molecule type": "double-stranded DNA, one strand shown", "medium": "in vitro", "concentration": "not given", "setting": "8-mer, flanks averaged, mean of 2 arrays, mostly near background", "reference": "not given", "reading": "higher = stronger binding", "Residues (chain)": "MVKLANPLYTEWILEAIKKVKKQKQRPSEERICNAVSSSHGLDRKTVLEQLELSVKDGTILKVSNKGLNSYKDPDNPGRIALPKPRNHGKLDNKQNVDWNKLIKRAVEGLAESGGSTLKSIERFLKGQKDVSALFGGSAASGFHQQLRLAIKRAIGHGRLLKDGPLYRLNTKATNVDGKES"}
{"Sequence": "AAAAAGAT", "E-score": -0.0661}
{"Sequence": "GGGTTTCA", "E-score": 0.135}
{"Sequence": "CTGGTTTC", "E-score": 0.016}
{"Sequence": "ACGACGCT", "E-score": 0.0605}
{"Sequence": "ATGGCAAA", "E-score": -0.0182}
{"Sequence": "CAAACCCC", "E-score": -0.073}
{"Sequence": "AGAGTGCC", "E-score": -0.203}
{"Sequence": "CCAAGGGG", "E-score": -0.174}
{"data": "Series 3", "target": "Fragile X messenger ribonucleoprotein 1, C-terminal low-complexity region (Fmr1, Mus musculus, UniProt P35922)", "technique": "RNA Bind-n-Seq", "molecule type": "RNA", "medium": "in vitro", "concentration": "200 nM", "setting": "whole 134-nt RNA, ends assumed", "together with": "150 mM KCl", "reference": "input library", "reading": "higher = stronger binding"}
{"Sequence": "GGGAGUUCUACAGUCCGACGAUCCUCAAGUCCUGUGCUACACAUCGUAUGUACCGAAUCGGUGGAGGAAAAAAAGGAAAGUAUUAUGUUACGCCGUUCGGAUCUGCACUUCCAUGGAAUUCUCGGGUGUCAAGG", "log2 enrichment": -0.273}
{"Sequence": "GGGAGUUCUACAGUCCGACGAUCUCCUGUGCUACACAUCGUAUGUACCGAAUCGGGGCCCCCCGGGGCCCCCCGGCCCCCCGGAAAGUAUUAUGUUACGCCGUUCGGAUCUGCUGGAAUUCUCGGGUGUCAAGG", "log2 enrichment": -0.214}
{"Sequence": "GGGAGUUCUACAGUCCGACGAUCAGUCCUGUGCUACACAUCGUAUGUACCGAAUCGGAAAAAAAGGAAAAAGGUUUUUGGAAAGUAUUAUGUUACGCCGUUCGGAUCUGCACUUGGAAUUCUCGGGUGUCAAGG", "log2 enrichment": -1.18}
{"Sequence": "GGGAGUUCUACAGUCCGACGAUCACCAUGCAGGUGGGCAUCUUGGGGAAGUGGGGCAAGGGGGGGAUAGGGAGGGGGGUAACACUUUGGGAACAGGUGGUCCCAGGUCGUUUCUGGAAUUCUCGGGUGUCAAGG", "log2 enrichment": 0.813}
{"Sequence": "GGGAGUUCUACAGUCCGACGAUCUCCUCAAGUCCUGUGCUACACAUCGUAUGUACCGAAUCGGGUGGGUGGUGGGAAAGUAUUAUGUUACGCCGUUCGGAUCUGCACUUCCAGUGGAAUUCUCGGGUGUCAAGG", "log2 enrichment": 1.32}
{"Sequence": "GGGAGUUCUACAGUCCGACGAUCUCAAGUCCUGUGCUACACAUCGUAUGUACCGAAUCGGGGAAGGGAAGGGAAGGGGAAAGUAUUAUGUUACGCCGUUCGGAUCUGCACUUCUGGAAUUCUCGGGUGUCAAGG", "log2 enrichment": 0.7}
{"Sequence": "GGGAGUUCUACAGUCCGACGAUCCACAGACAACACGCACCCACACAGACACAGAGGGAAGGGGUUGGGAUGGGGACAGGGUGCACAGCAGGGCGGAAAAGGACCCCAGCCCCUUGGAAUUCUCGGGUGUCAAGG", "log2 enrichment": 1.11}
{"Sequence": "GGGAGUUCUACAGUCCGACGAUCAGUCCUGUGCUACACAUCGUAUGUACCGAAUCAAACCCCCAAACCCAAACCCCCAAAAAAGUAUUAUGUUACGCCGUUCGGAUCUGCACUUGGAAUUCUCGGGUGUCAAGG", "log2 enrichment": -0.38}
{"data": "Mixed results"}
{"Molecule": "PhoQ, residues 284 288 289 292 302 303 NLMGRA", "target": "PhoP, residues 12 14 15 18 19 NHFIF (Escherichia coli, UniProt P23836)", "assay": "Sort-seq, measured: YFP reporter", "system": "E. coli", "setting": "PhoQ-PhoP variant library, together with: 10 µM Mg2+", "scale": "reference: high Mg2+ state, higher = stronger signaling", "quantity": "fold induction", "result": 4.78}
